# Published values gathered from unrelated publications.
# ± marks the error that the study gave.
Structure (SMILES),cell line,assay,setting,IC50 [µM]
C[C@H]1C(OCCCCCC[P+](c2ccccc2)(c2ccccc2)c2ccccc2)O[C@@H]2O[C@@]3(C)CCC4[C@H](C)CCC1[C@]42OO3 (some centres unmarked),OVCAR-3,"cell growth or viability, MTT",72 h,0.129
CC1=CC(C)=[N+]2C1=Cc1ccc(CCC(=O)NCC3C[NH][Pt]([Cl])([Cl])[NH]3)n1[B-]2(F)F (centres unmarked),CP.5 spheroids in 3D Matrigel,"cytotoxicity, CellTiter-Glo","4 days, pre-grown 4 days",300 ± 92.2
CC[C@@H](C(=O)[C@@H](C)[C@@H](O)[C@H](C)[C@@H]1O[C@@H]([C@@H](CC)C(=O)O)CC[C@@H]1C)[C@H]1O[C@]2(C=C[C@H](N)[C@]3(CC[C@@](C)([C@H]4CC[C@](O)(CC)[C@H](C)O4)O3)O2)[C@H](C)C[C@@H]1C,HMLER CD24low/CD44high,CellTiter-Blue,72 h,20.5 ± 3.3
[Cl][Ag].[Se]=c1n(C2CCCCC2)ccn1C1CCCCC1,PSN1,"cell growth or viability, MTT",72 h,1.4
O=C1CC2(C1)C(=O)[O][Pt]1([Cl])([O]C(=O)C(Cl)Cl)([NH][C@@H]3CCCC[C@H]3[NH]1)[O]C2=O,BGC803,"cell growth or viability, MTT",,7.63
CC(C)C[C@@H](NC(=O)CCNc1ccc([N+](=O)[O-])c2nonc12)C(=O)N[C@H](CC(C)C)C(=O)N[C@H](CC(C)C)C(=O)N[C@H](CC(C)C)C(=O)N[C@H](Cc1ccc(OP(=O)(O)O)cc1)C(=O)O,SAOS-2,"cell growth or viability, MTT",24 h,99
CC(N)C(O)CCCCCCCCCCCCCCC(=O)CCCCCCCC(O)C(C)N (centres unmarked),HCC70,"cell growth or viability, resazurin",96 h,47
Cc1cc(C)c(N2CCN(c3c(C)cc(C)cc3C)C2=[Se])c(C)c1.[Cl][Au],LoVo-OXP (oxaliplatin-resistant),MTT,72 h,2.5 ± 0.5
CNC(=O)c1cc(Oc2ccc(NC(=O)c3ccc(-c4cccc(OC(=O)CCC(=O)OC5OC6OC7(C)CCC8C(C)CCC(C5C)C68OO7)c4)cn3)cc2)ccn1 (centres unmarked),Huh-7,"cell growth or viability, MTT",72 h,1.65
CC[C@H](C)[C@H](NC(=O)CN)C(=O)NCC(=O)N[C@@H](C)C(=O)N[C@H](C(=O)N[C@@H](CC(C)C)C(=O)N[C@@H](CCCCN)C(=O)N[C@H](C(=O)N[C@@H](CC(C)C)C(=O)N[C@H](C(=O)N[C@H](C(=O)NCC(=O)N[C@@H](CC(C)C)C(=O)N1CCC[C@H]1C(=O)N[C@@H](C)C(=O)N[C@@H](CC(C)C)C(=O)N[C@H](C(=O)N[C@@H](CO)C(=O)N[C@@H](Cc1c[nH]c2ccccc12)C(=O)N[C@H](C(=O)N[C@@H](CCCCN)C(=O)N[C@@H](CCCNC(=N)N)C(=O)N[C@@H](CCCCN)C(=O)N[C@@H](CCCNC(=N)N)C(=O)N[C@@H](CCC(N)=O)C(=O)N[C@@H](CCC(N)=O)C(N)=O)[C@@H](C)CC)[C@@H](C)CC)[C@@H](C)O)[C@@H](C)O)C(C)C)C(C)C,MCF7 vector control (FAP-negative),"cell viability, MTT",72 h,1.4 ± 0.1
COc1ccc(C(c2c(C)nn(-c3ccccc3)c2O)c2c(C)nn(-c3ccccc3)c2O)cc1OC,various human cancer cell lines,"cell growth, MTT",,5.45 to 18.3

# For quick reference, copied from above:
Structure (SMILES),cell line,assay,setting,IC50 [µM]
CC1=CC(C)=[N+]2C1=Cc1ccc(CCC(=O)NCC3C[NH][Pt]([Cl])([Cl])[NH]3)n1[B-]2(F)F (centres unmarked),CP.5 spheroids in 3D Matrigel,"cytotoxicity, CellTiter-Glo","4 days, pre-grown 4 days",300 ± 92.2
